Published values pooled from the literature.
Protocols differ between the studies behind these lines. ± marks the error that the study gave.
Sequence of UniProt Q13882 (whole entry, looked up): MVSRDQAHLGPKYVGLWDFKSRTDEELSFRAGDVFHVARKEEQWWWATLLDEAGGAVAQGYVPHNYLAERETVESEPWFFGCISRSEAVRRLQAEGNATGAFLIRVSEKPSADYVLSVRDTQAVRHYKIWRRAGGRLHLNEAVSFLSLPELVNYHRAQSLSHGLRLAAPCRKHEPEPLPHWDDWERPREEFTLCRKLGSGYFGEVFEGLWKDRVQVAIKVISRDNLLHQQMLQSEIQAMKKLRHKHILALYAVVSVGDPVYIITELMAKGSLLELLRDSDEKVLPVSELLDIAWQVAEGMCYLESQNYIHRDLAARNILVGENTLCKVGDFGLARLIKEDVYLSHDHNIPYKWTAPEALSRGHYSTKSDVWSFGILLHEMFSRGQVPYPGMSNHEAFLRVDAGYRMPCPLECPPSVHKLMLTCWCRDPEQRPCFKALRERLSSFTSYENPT
Sequence of UniProt P53671 (whole entry, looked up): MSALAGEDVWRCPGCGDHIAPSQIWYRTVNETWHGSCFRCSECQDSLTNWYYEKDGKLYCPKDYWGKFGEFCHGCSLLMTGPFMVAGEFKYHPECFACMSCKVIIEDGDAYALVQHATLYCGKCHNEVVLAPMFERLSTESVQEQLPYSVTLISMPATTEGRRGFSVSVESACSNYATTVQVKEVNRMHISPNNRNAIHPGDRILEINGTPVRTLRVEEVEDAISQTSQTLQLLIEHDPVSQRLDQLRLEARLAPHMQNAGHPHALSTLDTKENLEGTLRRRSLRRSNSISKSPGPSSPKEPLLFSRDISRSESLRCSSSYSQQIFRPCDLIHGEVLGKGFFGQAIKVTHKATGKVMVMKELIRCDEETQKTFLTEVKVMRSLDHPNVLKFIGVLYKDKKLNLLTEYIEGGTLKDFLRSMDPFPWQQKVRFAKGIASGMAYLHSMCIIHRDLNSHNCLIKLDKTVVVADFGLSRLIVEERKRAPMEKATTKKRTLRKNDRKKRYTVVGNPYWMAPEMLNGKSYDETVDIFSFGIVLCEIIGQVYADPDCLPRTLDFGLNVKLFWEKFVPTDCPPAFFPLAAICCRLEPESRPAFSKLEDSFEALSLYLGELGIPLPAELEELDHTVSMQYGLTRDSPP
Sequence of UniProt Q9H2K8 (whole entry, looked up): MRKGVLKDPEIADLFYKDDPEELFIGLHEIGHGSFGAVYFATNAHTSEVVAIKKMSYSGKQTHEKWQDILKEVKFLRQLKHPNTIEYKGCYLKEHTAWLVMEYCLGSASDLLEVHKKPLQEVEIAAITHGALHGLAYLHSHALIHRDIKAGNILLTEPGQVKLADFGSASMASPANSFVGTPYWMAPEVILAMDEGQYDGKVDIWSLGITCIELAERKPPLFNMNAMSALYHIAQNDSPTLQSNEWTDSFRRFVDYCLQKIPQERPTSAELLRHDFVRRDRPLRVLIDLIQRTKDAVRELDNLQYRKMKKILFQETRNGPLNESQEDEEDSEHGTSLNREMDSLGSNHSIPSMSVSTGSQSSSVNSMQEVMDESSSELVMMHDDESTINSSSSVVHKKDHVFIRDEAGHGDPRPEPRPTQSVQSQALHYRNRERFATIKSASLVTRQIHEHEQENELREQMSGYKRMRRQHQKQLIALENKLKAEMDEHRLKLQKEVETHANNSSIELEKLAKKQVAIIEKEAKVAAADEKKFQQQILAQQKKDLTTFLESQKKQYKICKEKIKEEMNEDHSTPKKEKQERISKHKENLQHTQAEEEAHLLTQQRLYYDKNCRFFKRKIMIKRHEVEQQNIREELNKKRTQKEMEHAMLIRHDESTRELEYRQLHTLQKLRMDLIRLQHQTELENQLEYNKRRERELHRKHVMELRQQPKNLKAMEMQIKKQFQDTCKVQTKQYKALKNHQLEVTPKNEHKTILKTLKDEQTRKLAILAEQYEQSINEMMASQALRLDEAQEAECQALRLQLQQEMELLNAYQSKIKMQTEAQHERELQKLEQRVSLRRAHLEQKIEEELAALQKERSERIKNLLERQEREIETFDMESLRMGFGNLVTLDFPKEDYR
Sequence of UniProt O00443 (whole entry, looked up): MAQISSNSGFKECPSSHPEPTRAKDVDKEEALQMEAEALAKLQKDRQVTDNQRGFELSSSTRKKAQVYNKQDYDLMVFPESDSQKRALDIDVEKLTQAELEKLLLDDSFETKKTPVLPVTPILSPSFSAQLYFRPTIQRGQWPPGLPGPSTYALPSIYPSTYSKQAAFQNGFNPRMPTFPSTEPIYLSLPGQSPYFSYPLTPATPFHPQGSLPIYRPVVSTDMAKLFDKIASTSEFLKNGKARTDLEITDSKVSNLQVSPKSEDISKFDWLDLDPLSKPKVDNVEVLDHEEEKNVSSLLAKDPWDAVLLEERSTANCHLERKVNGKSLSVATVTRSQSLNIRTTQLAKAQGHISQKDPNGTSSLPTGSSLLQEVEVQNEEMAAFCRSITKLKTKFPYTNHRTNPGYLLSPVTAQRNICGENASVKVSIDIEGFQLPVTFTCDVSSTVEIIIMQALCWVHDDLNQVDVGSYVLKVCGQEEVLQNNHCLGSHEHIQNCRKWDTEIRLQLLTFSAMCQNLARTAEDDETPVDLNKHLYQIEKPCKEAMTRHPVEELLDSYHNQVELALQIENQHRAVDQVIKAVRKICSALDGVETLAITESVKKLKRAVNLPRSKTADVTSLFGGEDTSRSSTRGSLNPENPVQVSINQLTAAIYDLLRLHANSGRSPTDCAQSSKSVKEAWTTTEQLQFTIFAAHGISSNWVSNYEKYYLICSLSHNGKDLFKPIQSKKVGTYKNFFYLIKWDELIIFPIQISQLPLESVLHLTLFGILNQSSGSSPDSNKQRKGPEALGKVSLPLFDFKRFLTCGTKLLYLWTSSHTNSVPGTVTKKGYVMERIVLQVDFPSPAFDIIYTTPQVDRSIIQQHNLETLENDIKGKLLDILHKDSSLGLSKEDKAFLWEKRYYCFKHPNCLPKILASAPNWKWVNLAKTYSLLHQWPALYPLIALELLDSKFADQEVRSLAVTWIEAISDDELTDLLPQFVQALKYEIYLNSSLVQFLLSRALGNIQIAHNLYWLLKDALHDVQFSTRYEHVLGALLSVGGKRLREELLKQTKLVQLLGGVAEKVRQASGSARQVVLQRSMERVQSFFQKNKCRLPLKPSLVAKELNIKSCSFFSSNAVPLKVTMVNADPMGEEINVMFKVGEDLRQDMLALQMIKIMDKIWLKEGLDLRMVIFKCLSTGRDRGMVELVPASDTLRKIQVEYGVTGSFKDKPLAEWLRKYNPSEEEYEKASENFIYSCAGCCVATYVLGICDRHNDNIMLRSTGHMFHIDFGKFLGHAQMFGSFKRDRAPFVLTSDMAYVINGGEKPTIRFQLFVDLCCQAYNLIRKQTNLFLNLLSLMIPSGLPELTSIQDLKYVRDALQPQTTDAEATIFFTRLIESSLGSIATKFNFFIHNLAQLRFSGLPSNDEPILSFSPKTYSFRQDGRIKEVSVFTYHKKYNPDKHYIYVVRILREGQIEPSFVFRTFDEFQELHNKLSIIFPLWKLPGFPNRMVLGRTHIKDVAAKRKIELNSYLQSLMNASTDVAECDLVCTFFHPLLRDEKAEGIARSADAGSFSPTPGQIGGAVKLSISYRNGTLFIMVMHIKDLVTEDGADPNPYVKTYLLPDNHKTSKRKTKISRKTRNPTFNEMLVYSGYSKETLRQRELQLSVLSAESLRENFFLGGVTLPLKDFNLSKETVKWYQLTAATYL
Sequence of UniProt Q86Z02 (whole entry, looked up): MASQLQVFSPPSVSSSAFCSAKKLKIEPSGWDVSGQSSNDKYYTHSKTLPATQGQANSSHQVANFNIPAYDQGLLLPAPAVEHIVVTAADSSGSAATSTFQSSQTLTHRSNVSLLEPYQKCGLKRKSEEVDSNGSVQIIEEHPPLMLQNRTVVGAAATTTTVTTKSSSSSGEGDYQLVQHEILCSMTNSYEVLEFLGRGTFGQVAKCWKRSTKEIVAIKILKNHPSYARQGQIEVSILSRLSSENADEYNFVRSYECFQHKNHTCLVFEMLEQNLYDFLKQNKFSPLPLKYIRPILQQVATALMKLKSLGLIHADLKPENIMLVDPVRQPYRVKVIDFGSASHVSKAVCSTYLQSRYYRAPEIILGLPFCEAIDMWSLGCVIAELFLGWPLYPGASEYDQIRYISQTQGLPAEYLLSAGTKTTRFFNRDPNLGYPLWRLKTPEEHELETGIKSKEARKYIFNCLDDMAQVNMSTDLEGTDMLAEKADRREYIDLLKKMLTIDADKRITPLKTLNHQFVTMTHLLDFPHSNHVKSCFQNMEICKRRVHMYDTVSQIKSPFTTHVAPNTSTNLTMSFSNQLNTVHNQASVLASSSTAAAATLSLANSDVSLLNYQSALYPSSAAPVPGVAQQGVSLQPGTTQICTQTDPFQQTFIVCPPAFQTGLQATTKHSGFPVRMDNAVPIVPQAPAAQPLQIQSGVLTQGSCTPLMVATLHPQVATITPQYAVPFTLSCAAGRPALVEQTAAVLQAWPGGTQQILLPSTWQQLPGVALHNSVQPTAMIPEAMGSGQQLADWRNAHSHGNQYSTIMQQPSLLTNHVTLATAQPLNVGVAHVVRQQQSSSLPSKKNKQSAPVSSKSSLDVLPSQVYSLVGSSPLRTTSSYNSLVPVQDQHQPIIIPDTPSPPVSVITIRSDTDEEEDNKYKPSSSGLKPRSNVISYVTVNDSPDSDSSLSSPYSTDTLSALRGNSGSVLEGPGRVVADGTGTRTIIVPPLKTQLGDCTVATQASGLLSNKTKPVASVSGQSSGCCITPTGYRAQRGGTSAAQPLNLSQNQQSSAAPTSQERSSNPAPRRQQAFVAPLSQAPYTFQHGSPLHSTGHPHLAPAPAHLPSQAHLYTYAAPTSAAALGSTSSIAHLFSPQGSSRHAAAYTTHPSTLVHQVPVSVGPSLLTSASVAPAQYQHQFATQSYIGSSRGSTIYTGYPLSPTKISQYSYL

O=C(O)c1ccc(Nc2ncc3c(n2)-c2ccc(Cl)cc2C(c2c(F)cccc2F)=NC3)cc1
remaining activity (human Pim-2(h); kinase activity; 1 µM): 101%

COc1cc(F)ccc1-c1ncnc(Nc2cccc(C[S@](C)(=N)=O)c2)n1
remaining activity (Phosphatidylinositol 4-phosphate 3-kinase C2 domain-containing subunit alpha (PIK3C2A, Homo sapiens, UniProt O00443); kinase activity; 10 µM, with: 10 µM ATP): 99%

COc1cc(-c2cncc3c2CN(C)Cc2cc(N4CCNCC4)ccc2-3)cc(OC)c1OC
remaining activity (Tyrosine-protein kinase receptor UFO (AXL, Homo sapiens, UniProt P30530); kinase activity; 1 µM, human enzyme, with: ATP 10 µM; baseline: DMSO control): 86%

COc1ccc(F)cc1C(=O)NCc1ccc(-c2nn([C@@H](C)C(F)(F)F)c(N)c2C(N)=O)cc1
remaining activity (Proto-oncogene tyrosine-protein kinase receptor Ret (RET, Homo sapiens, UniProt P07949); kinase activity, inhibitor, HotSpot radiometric; 1000 nM, with: ATP at Km): 53.9 ± 1.2%

O=C(NC1CCC1)c1ccc2nc(-c3cccc(NS(=O)(=O)NCCN4CCCCC4)c3)cn2c1
remaining activity (LIM domain kinase 2 (LIMK2, Homo sapiens, UniProt P53671); enzyme activity; 10 µM): 100%

O=C1NC(=O)/C(=C/c2ccc(-c3ccc(F)cc3O)o2)S1
remaining activity (Homeodomain-interacting protein kinase 1 (HIPK1, Homo sapiens, UniProt Q86Z02); enzyme activity; 10 µM): 29%

Cc1cc(Nc2cc(N3CCN(C)CC3)nc(Sc3ccc(NC(=O)C4CC4)cc3)n2)[nH]n1
remaining activity (Serine/threonine-protein kinase TAO3 (TAOK3, Homo sapiens, UniProt Q9H2K8); kinase activity, KinaseProfiler; 0.03 µM, species human; baseline: control): 85%

C=CC(=O)N1CCC[C@@H](n2nc(-c3ccc(Oc4ccccc4)cc3)c3c(N)ncnc32)C1
remaining activity (Protein-tyrosine kinase 6 (PTK6, Homo sapiens, UniProt Q13882); 1 µM): 67.9%

Repeated from above:
O=C(NC1CCC1)c1ccc2nc(-c3cccc(NS(=O)(=O)NCCN4CCCCC4)c3)cn2c1
remaining activity (LIM domain kinase 2 (LIMK2, Homo sapiens, UniProt P53671); enzyme activity; 10 µM): 100%
